Results of several laboratories.
Protocols differ between the studies behind these lines. ± marks the error that the study gave.
GLP1R: Glucagon-like peptide 1 receptor (GLP1R, Homo sapiens, UniProt P43220)
UniProt P07195, sequence (whole entry, looked up): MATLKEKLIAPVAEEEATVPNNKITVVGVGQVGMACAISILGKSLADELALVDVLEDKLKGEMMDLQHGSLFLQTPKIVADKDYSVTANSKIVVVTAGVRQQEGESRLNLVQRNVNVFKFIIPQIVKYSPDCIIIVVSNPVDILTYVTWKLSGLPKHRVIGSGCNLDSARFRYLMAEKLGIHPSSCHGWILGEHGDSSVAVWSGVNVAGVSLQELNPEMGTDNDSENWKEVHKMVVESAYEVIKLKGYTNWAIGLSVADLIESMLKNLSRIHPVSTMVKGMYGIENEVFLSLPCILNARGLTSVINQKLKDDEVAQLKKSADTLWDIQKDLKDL
UniProt P04150, sequence (whole entry, looked up): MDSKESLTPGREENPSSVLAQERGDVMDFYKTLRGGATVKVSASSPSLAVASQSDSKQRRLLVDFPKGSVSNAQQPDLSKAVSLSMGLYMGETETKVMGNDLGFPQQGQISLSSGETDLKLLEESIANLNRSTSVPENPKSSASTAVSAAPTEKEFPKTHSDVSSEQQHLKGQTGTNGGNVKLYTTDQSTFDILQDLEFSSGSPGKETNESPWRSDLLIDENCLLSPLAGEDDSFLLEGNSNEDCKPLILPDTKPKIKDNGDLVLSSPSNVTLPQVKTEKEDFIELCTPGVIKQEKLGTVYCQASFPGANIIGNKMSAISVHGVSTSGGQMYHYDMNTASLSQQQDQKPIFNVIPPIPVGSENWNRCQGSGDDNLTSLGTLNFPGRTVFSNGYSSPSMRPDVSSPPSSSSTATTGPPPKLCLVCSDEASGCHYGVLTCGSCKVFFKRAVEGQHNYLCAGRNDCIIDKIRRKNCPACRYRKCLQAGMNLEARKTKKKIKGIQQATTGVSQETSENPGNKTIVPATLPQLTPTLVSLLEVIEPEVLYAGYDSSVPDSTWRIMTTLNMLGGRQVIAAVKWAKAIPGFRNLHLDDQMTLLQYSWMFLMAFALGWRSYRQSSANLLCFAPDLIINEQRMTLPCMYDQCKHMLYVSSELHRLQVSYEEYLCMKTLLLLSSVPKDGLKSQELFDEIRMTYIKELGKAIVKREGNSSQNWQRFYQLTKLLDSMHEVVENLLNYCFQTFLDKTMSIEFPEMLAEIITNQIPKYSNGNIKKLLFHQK
UniProt Q5AHK2, sequence (whole entry, looked up): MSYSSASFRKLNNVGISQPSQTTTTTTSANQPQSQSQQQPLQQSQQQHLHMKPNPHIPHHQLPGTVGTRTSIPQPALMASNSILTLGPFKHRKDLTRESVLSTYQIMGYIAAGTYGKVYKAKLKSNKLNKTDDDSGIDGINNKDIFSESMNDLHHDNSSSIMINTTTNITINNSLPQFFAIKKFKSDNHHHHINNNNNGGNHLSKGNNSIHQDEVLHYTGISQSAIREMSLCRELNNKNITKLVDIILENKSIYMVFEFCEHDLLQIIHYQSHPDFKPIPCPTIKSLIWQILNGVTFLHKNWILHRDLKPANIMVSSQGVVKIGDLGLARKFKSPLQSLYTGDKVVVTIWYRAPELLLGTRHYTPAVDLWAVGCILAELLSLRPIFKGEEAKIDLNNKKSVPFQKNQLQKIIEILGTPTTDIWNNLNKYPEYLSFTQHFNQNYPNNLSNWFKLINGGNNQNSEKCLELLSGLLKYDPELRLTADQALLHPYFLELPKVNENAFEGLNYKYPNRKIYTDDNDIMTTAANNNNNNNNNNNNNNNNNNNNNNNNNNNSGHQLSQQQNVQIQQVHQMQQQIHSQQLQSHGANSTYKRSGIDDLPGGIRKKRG
UniProt P34995, sequence (whole entry, unmodified, looked up): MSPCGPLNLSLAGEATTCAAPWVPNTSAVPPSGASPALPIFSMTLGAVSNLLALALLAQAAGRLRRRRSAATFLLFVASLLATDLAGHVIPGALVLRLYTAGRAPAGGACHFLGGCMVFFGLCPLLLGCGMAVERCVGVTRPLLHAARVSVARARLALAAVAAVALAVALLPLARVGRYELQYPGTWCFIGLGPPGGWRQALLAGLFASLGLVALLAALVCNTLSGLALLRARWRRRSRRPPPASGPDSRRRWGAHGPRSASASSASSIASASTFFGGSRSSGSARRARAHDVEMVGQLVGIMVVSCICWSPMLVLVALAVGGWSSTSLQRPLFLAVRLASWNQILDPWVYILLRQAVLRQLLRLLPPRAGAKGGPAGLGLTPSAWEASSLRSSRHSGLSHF
UniProt Q16774, sequence (whole entry, unmodified, looked up): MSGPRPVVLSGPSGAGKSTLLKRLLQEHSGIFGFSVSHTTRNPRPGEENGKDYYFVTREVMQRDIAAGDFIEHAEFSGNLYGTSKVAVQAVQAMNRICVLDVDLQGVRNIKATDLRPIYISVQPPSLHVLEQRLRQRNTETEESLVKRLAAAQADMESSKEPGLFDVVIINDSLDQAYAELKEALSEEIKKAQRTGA
UniProt Q695T7, sequence (whole entry, looked up): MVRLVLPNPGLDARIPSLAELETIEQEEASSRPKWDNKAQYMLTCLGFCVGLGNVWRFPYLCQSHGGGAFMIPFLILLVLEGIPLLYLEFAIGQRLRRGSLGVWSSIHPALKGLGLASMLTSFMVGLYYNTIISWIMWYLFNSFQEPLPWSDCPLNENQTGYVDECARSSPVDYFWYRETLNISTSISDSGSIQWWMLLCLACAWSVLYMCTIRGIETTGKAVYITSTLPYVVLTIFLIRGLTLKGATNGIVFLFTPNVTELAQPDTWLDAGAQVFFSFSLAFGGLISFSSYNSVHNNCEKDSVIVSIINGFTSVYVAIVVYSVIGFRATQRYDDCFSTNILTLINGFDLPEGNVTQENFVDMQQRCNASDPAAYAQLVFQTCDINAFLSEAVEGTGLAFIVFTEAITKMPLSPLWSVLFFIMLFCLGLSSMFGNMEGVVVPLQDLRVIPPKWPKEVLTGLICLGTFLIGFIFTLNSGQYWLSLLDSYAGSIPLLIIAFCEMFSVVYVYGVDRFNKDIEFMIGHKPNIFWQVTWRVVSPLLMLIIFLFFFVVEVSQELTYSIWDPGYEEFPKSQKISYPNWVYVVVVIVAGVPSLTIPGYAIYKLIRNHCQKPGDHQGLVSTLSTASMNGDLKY

Under “log2 fold change”, `c1coc(-c2n[nH]cc2-c2ccnc3ccccc23)c1` is recorded as -0.01 (Serine/threonine-protein kinase SSN3 (SSN3, Candida albicans, UniProt Q5AHK2); kinase binding, MIB/MS competition; Candida albicans lysate; 1 µM; relative to: DMSO, negative = stronger binding).
For `CC(C)C[C@@H](C=O)NC(=O)[C@H](CC(C)C)NC(=O)[C@H](CC(C)C)NC(=O)OCc1ccccc1`, “luminescence signal reduction” read -1.61% (NanoBiT HiBiT/LgBiT luciferase; inhibitor, HiBiT luminescence counterscreen; conditioned medium only; 1.66 µM, 24 h; relative to: vehicle).
For `COc1cc(/C=N/NC(=O)c2cc3c(ccc4ccccc43)o2)cc(OC)c1O`, activity read “inactive” (NR3C1 (Homo sapiens, UniProt P04150); SRC1-4 coactivator displacement, inhibitor, TR-FRET; up to 100 µM, with: dexamethasone).
`Nc1ncnc2c1ncn2[C@@H]1O[C@H](COP(=O)(O)OP(=O)(O)O)[C@@H](O)[C@H]1O` gave a ΔG of -6.16 kcal/mol (GUK1 (Homo sapiens, UniProt Q16774, S18A); binding, ITC).
`CC[C@H](C)[C@H](NC(=O)[C@H](Cc1ccccc1)NC(=O)[C@H](CCC(=O)O)NC(=O)[C@H](CCCNC(=N)N)NC(=O)[C@H](C)NC(=O)[C@H](C)NC(=O)[C@H](CCC(N)=O)NC(=O)[C@H](CCCCNc1c(NCCCCCN(O)C(=O)CCC(=O)NCCCCCN(O)C(=O)CCC(=O)NCCCCCN(O)C(C)=O)c(=O)c1=O)NC(=O)[C@H](CCC(=O)O)NC(=O)[C@H](CC(C)C)NC(=O)[C@H](Cc1ccc(O)cc1)NC(=O)[C@H](CO)NC(=O)[C@H](CO)NC(=O)[C@H](CCCCNc1c(NCCCCCN(O)C(=O)CCC(=O)NCCCCCN(O)C(=O)CCC(=O)NCCCCCN(O)C(C)=O)c(=O)c1=O)NC(=O)[C@H](CC(=O)O)NC(=O)[C@H](CO)NC(=O)[C@@H](NC(=O)[C@H](Cc1ccccc1)NC(=O)[C@@H](NC(=O)CNC(=O)[C@H](CCC(=O)O)NC(=O)[C@H](C)NC(=O)CCc1cnc[nH]1)[C@@H](C)O)[C@@H](C)O)C(=O)N[C@@H](C)C(=O)N[C@@H](Cc1c[nH]c2ccccc12)C(=O)N[C@@H](CC(C)C)C(=O)N[C@H](C(=O)N[C@@H](CCCNC(=N)N)C(=O)NCC(=O)N[C@@H](CCCNC(=N)N)C(=O)N[C@@H](CCCCNC(=O)COCCOCCNC(=O)COCCOCCNC(=O)CC[C@H](NC(=O)CCCCCCCCCCCCCCCCC(=O)O)C(=O)O)C(=O)O)C(C)C`: “fold potency loss” 57.9 (GLP1R; agonist, CRE luciferase reporter; BHK cells; Zr-loaded DFO conjugate, with: 0% HSA; relative to: parent peptide).
For `Cc1ncsc1-c1ccc(CNC(=O)[C@@H]2C[C@@H](O)CN2C(=O)[C@@H](NC(=O)CCCCCCCCCCCC(=O)NCCCCC#Cc2cccc(-c3nn(-c4nc(C(=O)O)cs4)c(CC4CC4)c3Cc3ccc(S(N)(=O)=O)cc3)c2)C(C)(C)C)cc1`, “time to maximal degradation” read 48 h (LDHB (Homo sapiens, UniProt P07195); degrader, western blot; PANC-1; 1 µM).
`CCCCC[C@H](O)/C=C/[C@H]1[C@H](O)CC(=O)[C@@H]1C/C=C\CCCC(=O)O` gave an Emax of 110 ± 3.13% (PTGER1 (Homo sapiens, UniProt P34995, P39A); IP1 accumulation, agonist; AD293; 1 h, EP1 P39A mutant).
For `CCNC(=O)/C=C/c1cccc(Br)c1`, “remaining transport activity” read 0.0295 (SLC6A19 (Homo sapiens, UniProt Q695T7); inhibitor, FLIPR membrane potential; CHO-BC cells; 100 µM, unit not given; relative to: no inhibitor).
`CC[C@H](C)[C@H](NC(=O)[C@H](Cc1ccccc1)NC(=O)[C@H](CCC(=O)O)NC(=O)[C@H](CCCNC(=N)N)NC(=O)[C@H](C)NC(=O)[C@H](C)NC(=O)[C@H](CCC(N)=O)NC(=O)[C@H](CCC(=O)O)NC(=O)[C@H](CCC(=O)O)NC(=O)[C@H](CC(C)C)NC(=O)[C@H](Cc1ccc(O)cc1)NC(=O)[C@H](CO)NC(=O)[C@H](CO)NC(=O)[C@H](CCCCNc1c(NCCCCCN(O)C(=O)CCC(=O)NCCCCCN(O)C(=O)CCC(=O)NCCCCCN(O)C(C)=O)c(=O)c1=O)NC(=O)[C@H](CC(=O)O)NC(=O)[C@H](CO)NC(=O)[C@@H](NC(=O)[C@H](Cc1ccccc1)NC(=O)[C@@H](NC(=O)CNC(=O)[C@H](CCC(=O)O)NC(=O)[C@H](C)NC(=O)CCc1cnc[nH]1)[C@@H](C)O)[C@@H](C)O)C(=O)N[C@@H](C)C(=O)N[C@@H](Cc1c[nH]c2ccccc12)C(=O)N[C@@H](CC(C)C)C(=O)N[C@H](C(=O)N[C@@H](CCCNC(=N)N)C(=O)NCC(=O)N[C@@H](CCCNC(=N)N)C(=O)N[C@@H](CCCCNC(=O)COCCOCCNC(=O)COCCOCCNC(=O)CC[C@H](NC(=O)CCCCCCCCCCCCCCCCC(=O)O)C(=O)O)C(=O)NCC(=O)NCC(=O)N[C@@H](CO)C(=O)N[C@@H](CCCCNc1c(NCCCCCN(O)C(=O)CCC(=O)NCCCCCN(O)C(=O)CCC(=O)NCCCCCN(O)C(C)=O)c(=O)c1=O)C(=O)O)C(C)C`: “fold potency loss” 9.6 (GLP1R; agonist, CRE luciferase reporter; BHK cells; metal-free DFO conjugate, with: 1% HSA; relative to: parent peptide).
`Nc1ncnc2c1ncn2[C@@H]1O[C@H](COP(=O)(O)OP(=O)(O)O)[C@@H](O)[C@H]1O` has a kcat of 0.006 ± 0.0005 s⁻¹ (CKMT1A (Homo sapiens, UniProt P12532, E265D); substrate, Kinase-Glo luminescence; pH 7.0, reverse reaction, E227D mutant, with: second substrate in excess).

Repeated from above:
For `CCNC(=O)/C=C/c1cccc(Br)c1`, “remaining transport activity” read 0.0295 (SLC6A19 (Homo sapiens, UniProt Q695T7); inhibitor, FLIPR membrane potential; CHO-BC cells; 100 µM, unit not given; relative to: no inhibitor).
